Experimental data gathered from unrelated publications.
Each line is one published result; not all experiments were run side by side. ± marks the error that the study gave.

N#Cc1ccc(C(c2ccc(C#N)cc2)n2cncn2)cc1  tumour concentration (human patients, tumour tissue at surgery; 10 mg daily): 90 ± 17.7 ng/g
Cc1ccc([C@@H]2O[C@H](CO)[C@@H](O)[C@H](O)[C@H]2O)cc1Cc1ccc(-c2ccc(F)cc2)s1  urinary calcium excretion change (Japanese type 2 diabetes patients; 100 mg, day 17, 24 h urine collection; relative to: baseline): -12.7 mg
CC(C)(C(=O)N1CCOc2c(C#N)cncc2C1)C(F)F  subjects with tachycardia TEAE (human, both sexes; oral, 10 mg single dose): 0%
CNCc1ccc(-c2[nH]c3cc(F)cc4c3c2CCNC4=O)cc1  diarrhoea incidence (human patients; oral, 600 mg twice daily, grade 2): 0%
Cc1ccc(Sc2ccccc2N2CCNCC2)c(C)c1  eczema incidence (healthy adult men; oral, 2.5 mg single dose, treatment-emergent adverse events): 0%
OC[C@H]1O[C@@H](c2ccc(Cl)c(Cc3ccc(O[C@H]4CCOC4)cc3)c2)[C@H](O)[C@@H](O)[C@@H]1O  change in LDL cholesterol (Japanese type 1 diabetes patients, blood; 10 mg, day 28; relative to: baseline): 1.58 mg/dL
CN1C[C@H](COc2nccc3c(NCc4ccco4)cc(Cl)nc23)OC1=O  PR interval (rabbit NZW female, isolated Langendorff heart; 10 µM, 15 min): 69 ms
C[C@H](CCC(=O)O[C@@H]1O[C@H](C(=O)O)[C@@H](O)[C@H](O)[C@H]1O)[C@H]1CC[C@H]2[C@@H]3[C@H](O)C[C@@H]4C[C@H](O)CC[C@]4(C)[C@H]3CC[C@]12C  relative peak deviation (human, plasma; endogenous baseline diurnal; relative to: daily mean concentration): 63.9 ± 16.8%
N#Cc1ccc2c(c1)[C@H]1CCCN(C(=O)c3ccc4[nH]cnc4c3)[C@H]1C2  minimum ACTH level (human; 160 mg, end of trial): 1.3 pmol/L
O=C(COc1ccc(Cl)cc1)NC12CC(c3nnc([C@H]4C[C@@H](OC(F)(F)F)C4)o3)(C1)C2  treatment-emergent adverse events (refers to: Tachycardia; healthy humans, both sexes; oral, dose not given, single ascending dose, fasted; relative to: subjects): 5.6%
CNC(=O)c1cc(Oc2ccc(NC(=O)Nc3cc(C(C)(C)C)nn3-c3ccc4ncccc4c3)c(F)c2)ccn1  patients with visual abnormality AE (refers to: worst grade 1; human; oral, dose not given, cycles 1 and 2, High AUC(0-4 h) subgroup): 11%
Cc1cc2sc(N)nc2c2cccnc12  dose-normalised AUC(0-inf) (female BALB/c mice, plasma; intraperitoneal, 30 mg/kg): 1520 kg·ng·h/mL/mg
NS(=O)(=O)c1cc(C(=O)O)c(NCc2ccco2)cc1Cl  subjects with adverse event (refers to: vessel puncture site pain; healthy men; oral, 8 days, treatment-emergent, crossover trial): 0%
O=C1CCc2ccc(OCCCCN3CCN(c4cccc(Cl)c4Cl)CC3)cc2N1  adverse event incidence (refers to: Tremor; genotyped patients, CYP2D6 ultrarapid metabolizers; dose not given, long-acting oral or depot): 13%
CCN1/C(=C/C(C)=O)Sc2ccc(F)cc21  mean blood pressure change (cynomolgus monkey; oral, 30 mg/kg, 6 h post-dose; relative to: pre-dose): 102 ± 1.2%
CCCC[C@@H]1NC(=O)[C@H](Cc2ccc(O)cc2)NC(=O)[C@@H]2CCCN2C(=O)[C@H](CC(=O)O)NC(=O)[C@H](C)NC(=O)[C@H](Cc2ccccc2)NC(=O)[C@@H]2CSCCC(=O)N3CN(CN(C3)C(=O)CCSC[C@@H](C(=O)N[C@@H](C)C(N)=O)NC1=O)C(=O)CCSC[C@H](NC(C)=O)C(=O)N[C@@H](CC(C)(C)C)C(=O)N1CCC[C@H]1C(=O)N[C@@H](CCC(=O)O)C(=O)N[C@H](CCCCNC(=O)CCc1cn(CCOCCOCCOCCOCCOCCOCCOCCOCCOCCOCCNC(=O)c3cc(C(=O)NCCOCCOCCOCCOCCOCCOCCOCCOCCOCCOCCn4cc(CCC(=O)NCCCC[C@H]5NC(=O)[C@H](CCC(=O)O)NC(=O)[C@@H]6CCCN6C(=O)[C@H](CC(C)(C)C)NC(=O)[C@@H](NC(C)=O)CSCCC(=O)N6CN7CN(C6)C(=O)CCSC[C@H](NC(=O)[C@H](Cc6ccc(O)cc6)NC(=O)[C@@H]6CCCN6C5=O)C(=O)N[C@@H](Cc5ccccc5)C(=O)N[C@@H](C)C(=O)N[C@@H](CC(=O)O)C(=O)N5CCC[C@H]5C(=O)N[C@@H](Cc5ccc(O)cc5)C(=O)N[C@@H](CCCC)C(=O)N[C@H](C(=O)N[C@@H](C)C(N)=O)CSCCC7=O)nn4)cc(C(=O)NCCOCCOCCOCCOCCOCCOCCOCCOCCOCCOCCn4cc(CCC(=O)N[C@H]5CSCCC(=O)N6CN7CN(C6)C(=O)CCSC[C@H](NC(=O)[C@@H](CC(=O)O)NC(=O)[C@H](Cc6cccc8ccccc68)NC(=O)[C@@H]6CCCN6C5=O)C(=O)N[C@@H](CCSC)C(=O)N[C@@H](CCCCNC(=N)N)C(=O)N[C@@H](CC(=O)O)C(=O)N[C@@H](Cc5c[nH]c6ccccc56)C(=O)N[C@@H](CO)C(=O)N[C@@H]([C@@H](C)O)C(=O)N5CCC[C@H]5C(=O)N5C[C@H](O)C[C@H]5C(=O)N[C@@H](Cc5c[nH]c6ccccc56)C(=O)N[C@H](C(N)=O)CSCCC7=O)nn4)c3)nn1)C(=O)N1CCC[C@H]1C(=O)N[C@@H](Cc1ccc(O)cc1)C(=O)N2  unbound Vdss (Sprague-Dawley rat): 5.3 L/kg
CCO  blood fibrinogen decreased (human; concentration not given, treatment-emergent adverse event): 0%
CCc1cc(C(=O)NC)c2nccc(N3CCc4c(cc(Cn5ccnc5)cc4-c4cn(C)nc4C(F)(F)F)C3=O)c2c1  serum PLT change (Sprague Dawley rats; oral, 100 mg/kg twice daily, 7 days; relative to: vehicle): 18.7%
C[C@@H](c1ncncc1F)[C@](O)(Cn1cncn1)c1ccc(F)cc1F  drug-related TEAE incidence (refers to: Nausea; human; oral, 400 mg): 0%
O=C(O)CCCOc1ccc([18F])cc1-c1cc(-c2ccccc2C(F)(F)F)n(-c2ccccc2)n1  radioactivity uptake (gamma counting; male ddY mice, spleen; intravenous, 2.1 MBq, 60 min): 0.11 ± 0.05 SUV
Cc1cc(-c2nnc(N)nc2-c2ccc(F)cc2)cc(Cl)n1  patients with treatment-related adverse events (refers to: Nausea; human phase Ia/Ib mCRPC, immunotherapy-naive; oral, dose not given): 69.2%
CCOc1c([C@H](C)n2nc(C)c3c(N)ncnc32)cc(Cl)c(F)c1[C@@H]1CNC(=O)C1  Cmax (patients, monotherapy; oral, 15 mg once daily, cycle 1 day 1): 808 ± 316 nM
NCCONC(=O)[C@@H]1CC[C@@H]2CN1C(=O)N2OS(=O)(=O)O  adverse event incidence (refers to: leading to withdrawal; healthy Chinese men; intravenous, 1 g, treatment-related): 0%
CNC(=O)c1cc(Oc2ccc(NC(=O)Nc3ccc(Cl)c(C(F)(F)F)c3)cc2)ccn1  ALT (NOD-SCID mouse, serum; ip, 30 mg/kg): 61.3 ± 54.5 U/L
O=C(O)CCC(=O)O.[2H]C([2H])([2H])Oc1cc(C)c2[nH]ccc2c1CN1CC[C@@H](C2CC2)C[C@H]1c1ccc(C(=O)O)cc1  Cmax (LC-MS/MS, geometric mean; human, plasma; 400 mg, single dose, fasting): 4510 ng/mL
CC[C@@H]1CN(C(=O)NCC(F)(F)F)C[C@@H]1c1cnc2cnc3[nH]ccc3n12  relative bioavailability (population PK modelling; human; oral, final model, outliers re-estimated; relative to: extended-release over immediate-release): 75.5%
COc1ncc(-c2nc3c(n2C(C)C)[C@H](c2ccc(Cl)cc2)N(c2cc(Cl)cn(C)c2=O)C3=O)c(OC)n1  AUC(0-t) geometric mean (human patients, plasma; oral, 350 mg, high-dose arm, cycle 1 day 1): 55100 ng·h/mL
C=CC[C@@H]1/C=C(\C)C[C@H](C)C[C@H](OC)[C@H]2O[C@@](O)(C(=O)C(=O)N3CCCC[C@H]3C(=O)O[C@H](/C(C)=C/[C@@H]3CC[C@@H](O)[C@H](OC)C3)[C@H](C)[C@@H](O)CC1=O)[C@H](C)C[C@@H]2OC  mean arterial pressure increase (radiotelemetry; Wistar Kyoto rats, male; ip, 0.5 mg/kg/day, first 5 days, normalized thereafter; relative to: vehicle): 10 ± 4 mmHg
